Measurements from different studies.
Each line is one published result; not all experiments were run side by side. Several values in a cell are separate wells, animals, samples, runs or records. ± marks the error that the study gave.
UniProt O43613, sequence (whole entry, looked up): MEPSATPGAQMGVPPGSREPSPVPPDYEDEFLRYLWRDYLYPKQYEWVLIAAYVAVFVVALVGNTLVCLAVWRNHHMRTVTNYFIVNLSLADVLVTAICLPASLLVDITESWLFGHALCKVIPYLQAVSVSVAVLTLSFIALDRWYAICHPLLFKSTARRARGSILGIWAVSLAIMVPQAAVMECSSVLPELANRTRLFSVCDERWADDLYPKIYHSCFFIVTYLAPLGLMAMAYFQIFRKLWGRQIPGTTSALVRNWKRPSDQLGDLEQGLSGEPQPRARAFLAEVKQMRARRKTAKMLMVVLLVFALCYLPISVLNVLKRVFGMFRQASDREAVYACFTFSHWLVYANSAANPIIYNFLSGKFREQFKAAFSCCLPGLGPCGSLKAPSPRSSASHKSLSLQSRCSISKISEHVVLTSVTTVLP
UniProt P49760, sequence (whole entry, looked up): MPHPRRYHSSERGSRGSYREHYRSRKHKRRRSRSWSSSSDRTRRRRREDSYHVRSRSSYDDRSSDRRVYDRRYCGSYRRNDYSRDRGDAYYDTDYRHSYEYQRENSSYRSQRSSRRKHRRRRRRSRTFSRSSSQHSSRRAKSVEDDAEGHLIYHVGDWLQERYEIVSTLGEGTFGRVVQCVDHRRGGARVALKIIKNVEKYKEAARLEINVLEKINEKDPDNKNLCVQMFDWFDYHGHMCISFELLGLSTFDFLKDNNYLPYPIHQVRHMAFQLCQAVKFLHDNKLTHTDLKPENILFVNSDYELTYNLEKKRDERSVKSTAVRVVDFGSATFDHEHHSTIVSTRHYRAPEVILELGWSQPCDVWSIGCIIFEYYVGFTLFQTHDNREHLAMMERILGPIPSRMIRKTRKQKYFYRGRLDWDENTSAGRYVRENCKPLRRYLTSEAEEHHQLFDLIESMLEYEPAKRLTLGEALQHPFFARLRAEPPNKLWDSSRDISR

For `O=C1c2ccccc2C(=O)c2ccccc21`, the viability was 144 ± 22.4% (HK-2 co-cultured with HepaRG; MTT; 66.67 µM, 24 h; relative to: untreated control).
The hemolysis of `CC[C@H](C)[C@H](NC(=O)[C@@H](NC(=O)[C@H](Cc1ccccc1)NC(=O)CNC(=O)[C@H](CCC(N)=O)NC(=O)[C@H](CCCCN)NC(=O)[C@H](C)N)C(C)C)C(=O)N[C@@H](Cc1ccc(O)cc1)C(=O)N[C@@H](CCCNC(=N)N)C(=O)N[C@H](C(=O)N[C@@H](CCCNC(=N)N)C(=O)N[C@H](C(=O)N[C@@H](CCCNC(=N)N)C(=O)N[C@@H](CCCNC(=N)N)C(=O)NCC(=O)N[C@@H](CC(N)=O)C(=O)N[C@@H](CCCNC(=N)N)C(=O)N[C@@H](CCCCN)C(N)=O)C(C)C)C(C)C` is reported as 0.9 ± 0.2% (rat erythrocytes; 200 µM, 60 min, 37 °C).
`CC(C)C[C@H](NC(=O)[C@H](CCCNC(=N)N)NC(=O)[C@H](CCCNC(=N)N)NC(=O)[C@H](CCCNC(=N)N)NC(=O)[C@@H]1CCCN1C(=O)[C@H](Cc1ccccc1)NC(=O)[C@H](Cc1ccc(O)cc1)NC(=O)[C@H](CCCNC(=N)N)NC(=O)[C@H](Cc1ccc(O)cc1)NC(=O)[C@@H](NC(=O)[C@H](CC(C)C)NC(=O)[C@H](Cc1ccc(O)cc1)NC(=O)[C@H](CCCNC(=N)N)NC(=O)[C@H](Cc1c[nH]cn1)NC(=O)[C@@H]1CCCN1C(=O)[C@H](Cc1c[nH]c2ccccc12)NC(=O)[C@H](Cc1ccc(O)cc1)NC(=O)[C@H](Cc1ccccc1)NC(=O)[C@@H]1CCCN1C(=O)[C@H](CCC(N)=O)NC(=O)[C@H](Cc1ccccc1)NC(=O)[C@@H]1CCCN1C(=O)[C@H](Cc1ccccc1)NC(=O)[C@H](CCCNC(=N)N)NC(=O)[C@H](Cc1c[nH]cn1)NC(=O)[C@H](CC(N)=O)NC(=O)[C@H](CS)NC(=O)[C@H](CCCNC(=N)N)NC(=O)[C@H](CO)NC(=O)[C@@H]1CCCN1C(=O)[C@@H](NC(=O)[C@H](Cc1ccccc1)NC(=O)[C@@H]1CCCN1C(=O)[C@@H](N)CCCNC(=N)N)C(C)C)[C@@H](C)O)C(=O)N[C@@H](CCC(N)=O)C(=O)N[C@@H](CCCNC(=N)N)C(=O)O` gave a CC50 of 69.4 µM (HaCaT; cell viability, MTT).
`CC(C)C[C@H](NC(=O)[C@H](CCCNC(=N)N)NC(=O)CNC(=O)CNC(=O)CNC(=O)c1ccc2c(c1)C(=O)OC21c2ccc(O)cc2Oc2cc(O)ccc21)C(=O)N[C@@H](CO)C(=O)N[C@@H](CO)C(=O)N[C@H](C(=O)N[C@@H](CC(=O)O)C(=O)N[C@@H](CO)C(=O)N[C@@H](CC(=O)O)C(=O)N[C@@H](CC(C)C)C(=O)N[C@@H](CO)C(=O)NCC(=O)N[C@@H](CS)C(N)=O)C(C)C` has a transport ratio of 10.8% (hCMEC/D3 monolayers; BBB permeability, Transwell, item: CF-labelled compound; EGM-2 medium; concentration not given, 3 h, apical to basal; relative to: fluorescence added apically).
`O=C(Nc1cccc(OS(=O)(=O)c2ccc(Cl)cc2)c1)c1ccc2ncccc2c1` has a viability of > 75% (HEK-293T; MTT; 100 µM, 24 h; relative to: untreated).
`C#CCCC[C@H]1OC(=O)[C@H](C(C)C)N(C)C(=O)[C@@H]2CCCN2C(=O)[C@H]([C@@H](C)CC)OC(=O)[C@H]([C@@H](C)CC)N(C)C(=O)[C@H]([C@@H](C)CC)NC(=O)[C@H]1C` — result for cytotoxicity: “not toxic” (HEK293; resazurin reduction; 30 µM, 24 h).
The IC10 of `CC(C)NCC(O)COc1ccc(CC(N)=O)cc1` (stereo not drawn) is reported as 4280 µM (MCF7 AREc32 cells; cell confluency, IncuCyte imaging; 24 h, nominal concentration).
`Oc1ccc(C(c2ccc(O)cc2)(C(F)(F)F)C(F)(F)F)cc1` gave a viable cells of 41.6 ± 15.5% (HepG2 spheroids, dissociated; annexin V-FITC/PI flow cytometry; 10 µM, 96 h).
The IC10 of `CCc1cccc(C)c1N(C(=O)CCl)C(C)COC` (stereo not drawn) is reported as 135 µM (MCF7 AREc32 cells; cell confluency, IncuCyte imaging; 24 h, nominal concentration).
The IC50 of `COc1cc(Nc2ncc(F)c(Nc3ccc4c(n3)NC(=O)C(C)(C)O4)n2)cc(OC)c1OC` is reported as > 10 µM (Orexin/Hypocretin receptor type 1 (HCRTR1, Homo sapiens, UniProt O43613)).
For `CCN(CC)CCCC[C@H](NC(=O)[C@H](CC(C)C)NC(=O)[C@H](C)NC(=O)[C@H](Cc1ccccc1)NC(=O)c1ccc(C(C)(C)C)cc1)C(=O)N[C@@H](CO)C(=O)OC`, cytotoxicity read “not toxic” (PC-3; CellTiter-Glo; up to 100 µM, 48 h).
`CC(C)(C)OC(=O)NCC(=O)N[C@@H](Cc1ccccc1)C(=O)N[C@H](C=O)Cc1c[nH]cn1` — result for “minimum cytotoxic concentration”: > 100 µM (HEL; cell morphology).
Under “late apoptotic cells”, `Cc1cc(C(C)(C)c2ccc(O)c(C)c2)ccc1O` is recorded as 12.5 ± 1.7% (HepG2 spheroids, dissociated; annexin V-FITC/PI flow cytometry; 0.1 µM, 24 h).
`N#C[C@H](C[C@@H]1CCCNC1=O)NC(=O)[C@H](CC1CC1)NC(=O)c1cc2cccc(Cl)c2[nH]1` has an EC50 of 4.84 µM (cryopreserved human hepatocytes; mRNA induction, inducer, item: CYP2B6; 72 h).
For `C[C@H]1CN(c2n[nH]c3nc(N[C@H]4CC[C@H](NS(=O)(=O)CCC(F)(F)F)CC4)ncc23)CCO1`, the relative abundance was 0.95 (Dual specificity protein kinase CLK2 (CLK2, Homo sapiens, UniProt P49760); inhibitor, Kinobeads competition profiling; 0.032 µM; relative to: vehicle).
For `O=S(=O)(O)C(F)(F)C(F)(F)C(F)(F)C(F)(F)F`, the LDH release was 60.4 mU/mL and 16.9 mU/mL and 71.7 mU/mL and 12.9 mU/mL (hTERT-RPTEC-OAT1; concentration not given, Transwell, basolateral-to-apical addition).
`O=c1ccc2ccccc2o1`: “point of departure” 382 µM (NHEK; oxygen consumption rate, Seahorse; 24 h).
`CS(=O)(=O)CCNCc1ccc(-c2ccc3ncnc(Nc4ccc(OCc5cccc(F)c5)c(Cl)c4)c3c2)o1` has an LD50 of 20.3 µM (MRC-5, mock-infected; nuclei count; 96 h).
The LDH release of `O=C(O)C(F)(F)C(F)(F)C(F)(F)C(F)(F)C(F)(F)C(F)(F)C(F)(F)C(F)(F)C(F)(F)C(F)(F)F` is reported as 18.1 mU/mL and 15.3 mU/mL and 11.3 mU/mL and 17.6 mU/mL (hTERT-RPTEC-OAT1; concentration not given, Transwell, basolateral-to-apical addition).
`COc1ccc2c(c1OC)C(=O)c1c(cc(C)c(O)c1OC)C2=O` gave a cell viability of 43.7 ± 1.72% (HK-2 co-cultured with HepaRG; MTT; 66.67 µM, 48 h; relative to: untreated control).
With `CC1=C(O)C(=O)C=C2C1=CC=C1[C@@]2(C)CC[C@@]2(C)[C@@H]3C[C@](C)(C(=O)O)CC[C@]3(C)CC[C@]12C` the apoptotic cells was 1.03 ± 0.27 (COS-7; 3 µM, 24 h, 0.1% DMSO, unit not given; relative to: vehicle control).
The IC50 of `CC[C@@H](C)[C@H]1O[C@@H](c2c(O)c(-c3ccccc3)cn(OC)c2=O)[C@H](C)C[C@@H]1C` is reported as > 10 µg/mL (KB; cytotoxicity, neutral red uptake; 48 h).
With `Cc1cc2c(c(O)c1O)C(=O)c1c(O)cc(O)cc1C2=O` the cell viability was 64 ± 14.2% (HepaRG co-cultured with HK-2; MTT; 266.67 µM, 48 h; relative to: untreated control).
For `O=C(O)C(F)(F)C(F)(F)C(F)(F)C(F)(F)C(F)(F)F`, the LDH release was 20.2 mU/mL and 17.5 mU/mL and 12.7 mU/mL and 14.8 mU/mL (hTERT-RPTEC-OAT1; concentration not given, Transwell, apical-to-basolateral addition).
`CC(=O)OC[C@H]1O[C@@H](Oc2cc(O)cc3cc4oc(C)cc(=O)c4c(O)c23)[C@H](O)[C@@H](O)[C@@H]1O` gave a cell viability of 128 ± 15% (HepaRG co-cultured with HK-2; MTT; 266.67 µM, 24 h; relative to: untreated control).
`CC(c1ccccc1)(c1ccc(O)cc1)c1ccc(O)cc1` has a necrotic cells of 27.1 ± 7.95% (HepG2 spheroids; annexin V-FITC/PI flow cytometry; 10 µM, 96 h).
`N=C(N)NCCC[C@H](NC(=O)[C@H](CCCNC(=N)N)NC(=O)[C@H](CCCNC(=N)N)NC(=O)[C@H](CCC(N)=O)NC(=O)[C@H](CCCNC(=N)N)NC(=O)[C@H](CCCNC(=N)N)NC(=O)[C@H](CCCCN)NC(=O)[C@H](CCCCN)NC(=O)[C@H](CCCNC(=N)N)NC(=O)CNC(=O)[C@H](Cc1ccc(O)cc1)NC(=O)CNC(=O)CNC(=O)CNC(=O)c1ccc2c(c1)C(=O)OC21c2ccc(O)cc2Oc2cc(O)ccc21)C(N)=O` gave a transport ratio of 5.8% (hCMEC/D3 monolayers; BBB permeability, Transwell, item: CF-labelled compound; EGM-2 medium; concentration not given, 2 h, apical to basal; relative to: fluorescence added apically).
`Nc1ccn([C@H]2CC[C@@H](CO)O2)c(=O)n1` — result for “minimal cytotoxic concentration”: > 250 µM (HEL; cell morphology).
The LDH release of `O=C(O)C(F)(F)C(F)(F)C(F)(F)C(F)(F)F` is reported as 14.5 mU/mL and 16.4 mU/mL and 21.1 mU/mL (hTERT-RPTEC-OAT1; concentration not given, Transwell, basolateral-to-apical addition).
For `CN(N=O)[C@H]1CC[C@@H](c2ccc(Cl)c(Cl)c2)c2ccccc21`, the relative survival was 28.6% (TK6 expressing CYP2B6; 0.04 µM, 4 h, without S9; relative to: vehicle).

Some of these lines once more:
The IC50 of `CC[C@@H](C)[C@H]1O[C@@H](c2c(O)c(-c3ccccc3)cn(OC)c2=O)[C@H](C)C[C@@H]1C` is reported as > 10 µg/mL (KB; cytotoxicity, neutral red uptake; 48 h).
With `Cc1cc2c(c(O)c1O)C(=O)c1c(O)cc(O)cc1C2=O` the cell viability was 64 ± 14.2% (HepaRG co-cultured with HK-2; MTT; 266.67 µM, 48 h; relative to: untreated control).
For `O=C(O)C(F)(F)C(F)(F)C(F)(F)C(F)(F)C(F)(F)F`, the LDH release was 20.2 mU/mL and 17.5 mU/mL and 12.7 mU/mL and 14.8 mU/mL (hTERT-RPTEC-OAT1; concentration not given, Transwell, apical-to-basolateral addition).
